Experimental data pooled from the literature.
Compare with care: the assays were run in different laboratories.
Organism: Mycobacteroides abscessus

| Structure (SMILES) | read-out | method | strain | time | direction | MIC |
| --- | --- | --- | --- | --- | --- | --- |
| O=C(CO/N=c1\cc2n(-c3ccc(Cl)cc3)c3ccccc3nc-2cc1Nc1ccc(Cl)cc1)NCc1ccc(C(F)(F)F)cc1 | bacterial growth | – | ATCC 19977 | – | – | > 30 µM |
| CO[C@H]1/C=C/O[C@@]2(C)Oc3c(C)c(O)c4c(c3C2=O)C2=NC3(CCN(CC(C)C)CC3)NC2=C(NC(=O)/C(C)=C\C=C\[C@H](C)[C@H](O)[C@@H](C)[C@@H](O)[C@@H](C)[C@H](OC(C)=O)[C@@H]1C)C4=O | – | – | clinical isolate Bamboo | – | 90% growth inhibition | 1.1 µM |
| O=C(CNc1ccccc1)NC1C2CC3CC(C2)CC1C3 (stereo not shown) | – | broth microdilution | – | 120 h | – | inactive |
| CC(C)/N=c1\cc2n(-c3ccc(Cl)cc3)c3ccccc3nc-2cc1Nc1ccc(Cl)cc1 | bacterial growth | – | clinical isolate | – | – | 3.75 µM |
| CCCCCCC#Cc1cncc(-c2nnc(SCc3ccc(C#N)cc3)n2C)c1 | – | – | – | – | no activity below value | ≥ 200 µM |
| NCC[C@H](O)C(=O)N[C@@H]1C[C@H](N)[C@@H](O[C@H]2O[C@H](CN)[C@@H](O)[C@H](O)[C@H]2O)[C@H](O)[C@H]1O[C@H]1O[C@H](CO)[C@@H](O)[C@H](N)[C@H]1O | – | resazurin microtiter | ATCC 19977 | – | – | 2.1 µg/mL |
| Cc1ccc(NCC(=O)N[C@H]2CC[C@H](C)CC2)cc1 | – | broth microdilution | – | 120 h | – | inactive |
| O=C(CO/N=c1\cc2n(-c3ccc(Cl)cc3)c3ccccc3nc-2cc1Nc1ccc(Cl)cc1)NCc1ccc2c(c1)CCO2 | bacterial growth | – | clinical isolate | – | – | > 30 µM |
| Nc1nc(N)c(OCCCOc2ccccc2CCC(=O)O)c(C2CCCCC2)n1 | – | resazurin microtiter | ATCC 19977 | – | – | 1.5 µg/mL |
| CCCCCCC#Cc1cncc(-c2nnc(SCc3ccc([N+](=O)[O-])cc3)n2C)c1 | – | – | – | – | no activity below value | ≥ 200 µM |
